Measurements gathered from unrelated publications.
Parts stem from different laboratories: compare values within a part only. Values joined by “and” are separate records of one study, mostly repeats; a detail may differ.
UniProt P42336, sequence (whole entry, unmodified, looked up): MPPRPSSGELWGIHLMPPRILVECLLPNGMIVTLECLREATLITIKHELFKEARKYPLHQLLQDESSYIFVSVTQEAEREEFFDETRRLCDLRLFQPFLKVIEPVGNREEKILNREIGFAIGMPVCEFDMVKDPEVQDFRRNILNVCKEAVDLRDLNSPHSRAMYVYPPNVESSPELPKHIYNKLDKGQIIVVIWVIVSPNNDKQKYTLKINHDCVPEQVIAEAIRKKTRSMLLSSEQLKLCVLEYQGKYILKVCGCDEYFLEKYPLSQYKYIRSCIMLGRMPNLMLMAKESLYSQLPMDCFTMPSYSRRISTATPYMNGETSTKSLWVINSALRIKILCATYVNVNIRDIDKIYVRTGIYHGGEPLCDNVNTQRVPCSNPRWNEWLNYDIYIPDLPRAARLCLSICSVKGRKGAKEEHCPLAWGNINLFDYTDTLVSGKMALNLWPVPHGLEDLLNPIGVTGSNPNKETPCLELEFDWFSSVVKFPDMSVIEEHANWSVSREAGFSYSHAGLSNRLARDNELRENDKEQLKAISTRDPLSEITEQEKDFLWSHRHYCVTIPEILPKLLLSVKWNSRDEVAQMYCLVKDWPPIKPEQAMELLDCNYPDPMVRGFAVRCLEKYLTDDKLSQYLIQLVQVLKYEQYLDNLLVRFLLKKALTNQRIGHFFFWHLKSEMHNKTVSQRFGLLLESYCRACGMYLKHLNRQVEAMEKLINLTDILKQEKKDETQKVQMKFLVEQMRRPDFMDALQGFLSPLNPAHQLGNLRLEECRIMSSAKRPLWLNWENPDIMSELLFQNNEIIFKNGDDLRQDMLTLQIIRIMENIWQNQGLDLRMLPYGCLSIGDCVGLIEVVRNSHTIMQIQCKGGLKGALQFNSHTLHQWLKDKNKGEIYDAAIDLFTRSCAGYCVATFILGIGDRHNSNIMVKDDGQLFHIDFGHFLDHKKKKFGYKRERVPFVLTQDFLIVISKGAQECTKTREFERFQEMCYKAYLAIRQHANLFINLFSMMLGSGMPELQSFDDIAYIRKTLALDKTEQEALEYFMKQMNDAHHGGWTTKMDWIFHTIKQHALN
UniProt Q96SW2, sequence (whole entry, looked up): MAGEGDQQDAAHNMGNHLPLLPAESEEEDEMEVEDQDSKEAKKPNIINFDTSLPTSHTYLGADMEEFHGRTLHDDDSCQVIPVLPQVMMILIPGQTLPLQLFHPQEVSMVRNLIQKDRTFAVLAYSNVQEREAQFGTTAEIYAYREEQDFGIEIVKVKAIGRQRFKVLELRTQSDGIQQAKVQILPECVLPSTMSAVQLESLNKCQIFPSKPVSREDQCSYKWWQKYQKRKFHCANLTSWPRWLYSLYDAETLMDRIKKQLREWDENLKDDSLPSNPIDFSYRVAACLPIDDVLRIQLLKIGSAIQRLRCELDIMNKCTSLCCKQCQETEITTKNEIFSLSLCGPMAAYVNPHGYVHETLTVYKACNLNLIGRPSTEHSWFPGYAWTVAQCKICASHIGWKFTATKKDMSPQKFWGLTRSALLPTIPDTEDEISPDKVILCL
UniProt Q8IY84, sequence (whole entry, looked up): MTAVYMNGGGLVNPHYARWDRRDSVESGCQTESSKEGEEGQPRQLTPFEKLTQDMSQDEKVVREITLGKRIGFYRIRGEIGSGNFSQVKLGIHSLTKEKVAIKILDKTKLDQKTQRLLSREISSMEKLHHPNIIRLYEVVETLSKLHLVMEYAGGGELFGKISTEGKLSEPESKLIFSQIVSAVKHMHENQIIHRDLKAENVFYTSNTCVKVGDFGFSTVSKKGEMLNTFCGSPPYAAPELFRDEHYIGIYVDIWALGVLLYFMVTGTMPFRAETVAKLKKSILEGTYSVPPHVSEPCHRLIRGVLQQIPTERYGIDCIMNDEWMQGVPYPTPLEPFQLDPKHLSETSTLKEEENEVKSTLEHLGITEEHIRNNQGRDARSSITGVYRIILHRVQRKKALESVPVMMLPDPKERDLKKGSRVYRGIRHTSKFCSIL
UniProt O60285, sequence (whole entry, looked up): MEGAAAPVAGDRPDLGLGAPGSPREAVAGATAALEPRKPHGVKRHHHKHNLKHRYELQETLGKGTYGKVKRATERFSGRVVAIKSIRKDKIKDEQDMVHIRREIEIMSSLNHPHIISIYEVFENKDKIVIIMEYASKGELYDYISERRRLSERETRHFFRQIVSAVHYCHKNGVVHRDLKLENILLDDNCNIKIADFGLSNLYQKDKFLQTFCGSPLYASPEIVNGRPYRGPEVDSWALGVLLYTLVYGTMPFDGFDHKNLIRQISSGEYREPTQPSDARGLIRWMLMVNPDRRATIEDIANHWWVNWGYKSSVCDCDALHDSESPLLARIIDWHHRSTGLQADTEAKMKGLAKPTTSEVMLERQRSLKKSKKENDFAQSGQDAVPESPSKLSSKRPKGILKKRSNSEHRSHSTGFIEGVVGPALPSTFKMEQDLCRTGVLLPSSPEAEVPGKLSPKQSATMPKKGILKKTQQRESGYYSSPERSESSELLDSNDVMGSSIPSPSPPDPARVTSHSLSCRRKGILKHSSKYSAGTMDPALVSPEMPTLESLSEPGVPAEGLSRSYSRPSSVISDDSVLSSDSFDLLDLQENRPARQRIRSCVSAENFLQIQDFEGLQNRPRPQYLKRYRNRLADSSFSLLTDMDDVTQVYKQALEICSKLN
UniProt Q86YV6, sequence (whole entry, looked up): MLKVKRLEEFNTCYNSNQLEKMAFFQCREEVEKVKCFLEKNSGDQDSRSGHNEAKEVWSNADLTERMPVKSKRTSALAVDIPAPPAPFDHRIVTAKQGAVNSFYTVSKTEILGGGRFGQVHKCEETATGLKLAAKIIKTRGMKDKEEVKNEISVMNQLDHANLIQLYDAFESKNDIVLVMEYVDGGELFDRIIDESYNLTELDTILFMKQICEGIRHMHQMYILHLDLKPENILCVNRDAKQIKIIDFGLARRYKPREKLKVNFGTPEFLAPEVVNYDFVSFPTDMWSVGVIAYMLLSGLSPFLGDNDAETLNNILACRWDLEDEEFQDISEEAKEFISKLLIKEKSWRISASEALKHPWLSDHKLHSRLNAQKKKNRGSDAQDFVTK

Block 1 — concentration: 1 µM
Structure (SMILES): CC[C@@]1(c2ccccc2)C2=C(CC(C)(C)CC2=O)Nc2n[nH]cc21
target | assay | how to read | remaining binding [%]
Ribosomal protein S6 kinase alpha-3, N-terminal kinase domain (RPS6KA3, Homo sapiens, UniProt P51812) | kinase binding, KINOMEscan | baseline: DMSO control | 100
Peripheral plasma membrane protein CASK (CASK, Homo sapiens, UniProt O14936) | kinase binding, KINOMEscan | baseline: DMSO control | 96
Casein kinase I isoform alpha (CSNK1A1, Homo sapiens, UniProt P48729) | kinase binding, KINOMEscan | baseline: DMSO control | 95
Serine/threonine-protein kinase DCLK3 (DCLK3, Homo sapiens, UniProt Q9C098) | binding, competition with immobilised ligand |  | 100
NUAK family SNF1-like kinase 1 (NUAK1, Homo sapiens, UniProt O60285) | binding, competition with immobilised ligand |  | 80
Mast/stem cell growth factor receptor Kit (KIT, Homo sapiens, UniProt P10721) | kinase binding, KINOMEscan | baseline: DMSO control | 100
Serine/threonine-protein kinase N1 (PKN1, Homo sapiens, UniProt Q16512) | binding, competition with immobilised ligand |  | 100
Mitogen-activated protein kinase kinase kinase 6 (MAP3K6, Homo sapiens, UniProt O95382) | kinase binding, KINOMEscan | baseline: DMSO control | 100
Calcium/calmodulin-dependent protein kinase type II subunit gamma (CAMK2G, Homo sapiens, UniProt Q13555) | binding, competition with immobilised ligand |  | 90
Epidermal growth factor receptor (EGFR, Homo sapiens, UniProt P00533, L861Q) | binding, competition with immobilised ligand |  | 100
Phosphatidylinositol 4,5-bisphosphate 3-kinase catalytic subunit alpha isoform (PIK3CA, Homo sapiens, UniProt P42336, M1043I) | kinase binding, KINOMEscan | baseline: DMSO control | 100
Tyrosine-protein kinase ABL1, non-phosphorylated (ABL1, Homo sapiens, UniProt P00519, F317I) | binding, competition with immobilised ligand |  | 98
Non-receptor tyrosine-protein kinase TNK1 (TNK1, Homo sapiens, UniProt Q13470) | kinase binding, KINOMEscan | baseline: DMSO control | 100
Phosphatidylinositol 4,5-bisphosphate 3-kinase catalytic subunit alpha isoform (PIK3CA, Homo sapiens, UniProt P42336, E542K) | binding, competition with immobilised ligand |  | 70
MAP kinase-activated protein kinase 5 (MAPKAPK5, Homo sapiens, UniProt Q8IW41) | binding, competition with immobilised ligand |  | 100
Phosphatidylinositol 4,5-bisphosphate 3-kinase catalytic subunit alpha isoform (PIK3CA, Homo sapiens, UniProt P42336, I800L) | kinase binding, KINOMEscan | baseline: DMSO control | 59
Myosin light chain kinase family member 4 (MYLK4, Homo sapiens, UniProt Q86YV6) | kinase binding, KINOMEscan | baseline: DMSO control | 97
Transient receptor potential cation channel subfamily M member 6 (TRPM6, Homo sapiens, UniProt Q9BX84) | binding, competition with immobilised ligand |  | 100
Dual specificity tyrosine-phosphorylation-regulated kinase 1B (DYRK1B, Homo sapiens, UniProt Q9Y463) | binding, competition with immobilised ligand |  | 86
Ephrin type-A receptor 4 (EPHA4, Homo sapiens, UniProt P54764) | binding, competition with immobilised ligand |  | 67
Ephrin type-B receptor 6 (EPHB6, Homo sapiens, UniProt O15197) | binding, competition with immobilised ligand |  | 100
Serine/threonine-protein kinase NIM1 (NIM1K, Homo sapiens, UniProt Q8IY84) | kinase binding, KINOMEscan | baseline: DMSO control | 99
TRAF2 and NCK-interacting protein kinase (TNIK, Homo sapiens, UniProt Q9UKE5) | kinase binding, KINOMEscan | baseline: DMSO control | 95

Block 2
SMILES: Cc1ccc(O)c(C)c1-c1cnc2[nH]c(-c3cnc(N4CCC5(CC4)CC(N4CCN(c6ccc(N[C@H]7CCC(=O)NC7=O)cc6F)CC4)CO5)nc3)cc2c1C#N (single isomer, unassigned)
PKMYT1: Membrane-associated tyrosine- and threonine-specific cdc2-inhibitory kinase (PKMYT1, Homo sapiens, UniProt Q99640)
UniProt Q99640, sequence (whole entry, looked up): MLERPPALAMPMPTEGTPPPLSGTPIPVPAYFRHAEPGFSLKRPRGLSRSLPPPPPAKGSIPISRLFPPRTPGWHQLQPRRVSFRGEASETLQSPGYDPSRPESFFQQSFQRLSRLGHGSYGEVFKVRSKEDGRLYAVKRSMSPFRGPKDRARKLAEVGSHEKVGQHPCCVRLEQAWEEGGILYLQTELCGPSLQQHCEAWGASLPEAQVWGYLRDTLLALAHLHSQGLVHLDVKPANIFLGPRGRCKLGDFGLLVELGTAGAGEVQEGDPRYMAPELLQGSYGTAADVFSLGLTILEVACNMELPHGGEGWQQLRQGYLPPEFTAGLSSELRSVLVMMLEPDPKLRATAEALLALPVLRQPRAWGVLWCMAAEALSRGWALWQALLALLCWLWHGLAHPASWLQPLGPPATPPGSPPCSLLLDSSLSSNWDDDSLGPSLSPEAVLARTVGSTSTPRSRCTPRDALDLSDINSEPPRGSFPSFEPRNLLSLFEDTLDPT
tested on | assay | setting | inhibition
PKMYT1 |  | 0.1111 µM | 94.8%
NCI-H1568 | cell proliferation | 10000 nM | 88.5% and 87.5%
Protein cereblon (CRBN, Homo sapiens, UniProt Q96SW2) | binding | 13.72 nM | 7.65% and 8.99%
SRC | KINOMEscan | 1000 nM | 81%
NCI-H1568 | cell proliferation | 4.572 nM | 1.53% and 1.31%
SW1463 | cell proliferation | 1.52 nM | -5.06% and -3.61%
PKMYT1 |  | 4.572 nM | 54.4% and 49.5%
NCI-H1568 | cell proliferation | 41.15 nM | 4.73% and 0.16% and 5.15%

Block 3 — cell line: L444P/L444P Gaucher fibroblasts; method: 4-MUG hydrolysis in lysate; concentration: 10 µM; time: 72 h; baseline: vehicle
SMILES | enzyme activity
Ic1ccc(Nc2nc(NCCN3CCOCC3)nc(N3CCCCC3)n2)cc1 | 91%
Ic1ccc(Nc2nc(NCCN3CCOCC3)nc(NC3CCCCC3)n2)cc1 | 93%
Ic1cccc(Nc2nc(NCCN3CCOCC3)nc(N3CCOCC3)n2)c1 | 131%
Ic1ccc(Nc2nc(N3CCOCC3)nc(N3CCOCC3)n2)cc1 | 151%
CCOc1ccc2nc(Sc3nc(NCCN4CCOCC4)nc(Nc4ccc(I)cc4)n3)sc2c1 | 121%
CCOc1ccc2nc(Sc3nc(Nc4ccc(I)cc4)nc(N4CCOCC4)n3)sc2c1 | 173% and 263% and 302% and 200% and 202% and 236% and 159%
c1ccc(Nc2nc(NCCN3CCOCC3)nc(N3CCOCC3)n2)cc1 | 113%
Ic1ccc(Nc2nc(NCCN3CCCCC3)nc(N3CCOCC3)n2)cc1 | 96%
Fc1ccc(Nc2nc(NCCN3CCOCC3)nc(N3CCOCC3)n2)cc1 | 106%
Ic1ccc(Nc2nc(NCCN3CCOCC3)nc(N3CCCC3)n2)cc1 | 96%
Ic1ccc(Nc2nc(NCCCN3CCOCC3)nc(N3CCOCC3)n2)cc1 | 131%

Block 4 — effect on: thermal unfolding; method: differential scanning fluorimetry; concentration: 5.5 µM; reading: higher = more unfolded
SMILES: C[C@@H]1CN(c2ccc(-c3cc(C(=O)NCCOCCOCCOCCOCCNC(=O)/C=C/c4[nH]cc(C(=O)N[C@@H](CC(N)=O)c5ccc(F)c(Cl)c5)c4-c4ccc(Cl)cc4F)ccc3F)cc2NC(=O)c2c[nH]c(=O)cc2C(F)(F)F)C[C@H](C)N1C
DCAF1: DDB1- and CUL4-associated factor 1 (DCAF1, Homo sapiens, UniProt Q9Y4B6)
UniProt Q9Y4B6, sequence (whole entry, looked up): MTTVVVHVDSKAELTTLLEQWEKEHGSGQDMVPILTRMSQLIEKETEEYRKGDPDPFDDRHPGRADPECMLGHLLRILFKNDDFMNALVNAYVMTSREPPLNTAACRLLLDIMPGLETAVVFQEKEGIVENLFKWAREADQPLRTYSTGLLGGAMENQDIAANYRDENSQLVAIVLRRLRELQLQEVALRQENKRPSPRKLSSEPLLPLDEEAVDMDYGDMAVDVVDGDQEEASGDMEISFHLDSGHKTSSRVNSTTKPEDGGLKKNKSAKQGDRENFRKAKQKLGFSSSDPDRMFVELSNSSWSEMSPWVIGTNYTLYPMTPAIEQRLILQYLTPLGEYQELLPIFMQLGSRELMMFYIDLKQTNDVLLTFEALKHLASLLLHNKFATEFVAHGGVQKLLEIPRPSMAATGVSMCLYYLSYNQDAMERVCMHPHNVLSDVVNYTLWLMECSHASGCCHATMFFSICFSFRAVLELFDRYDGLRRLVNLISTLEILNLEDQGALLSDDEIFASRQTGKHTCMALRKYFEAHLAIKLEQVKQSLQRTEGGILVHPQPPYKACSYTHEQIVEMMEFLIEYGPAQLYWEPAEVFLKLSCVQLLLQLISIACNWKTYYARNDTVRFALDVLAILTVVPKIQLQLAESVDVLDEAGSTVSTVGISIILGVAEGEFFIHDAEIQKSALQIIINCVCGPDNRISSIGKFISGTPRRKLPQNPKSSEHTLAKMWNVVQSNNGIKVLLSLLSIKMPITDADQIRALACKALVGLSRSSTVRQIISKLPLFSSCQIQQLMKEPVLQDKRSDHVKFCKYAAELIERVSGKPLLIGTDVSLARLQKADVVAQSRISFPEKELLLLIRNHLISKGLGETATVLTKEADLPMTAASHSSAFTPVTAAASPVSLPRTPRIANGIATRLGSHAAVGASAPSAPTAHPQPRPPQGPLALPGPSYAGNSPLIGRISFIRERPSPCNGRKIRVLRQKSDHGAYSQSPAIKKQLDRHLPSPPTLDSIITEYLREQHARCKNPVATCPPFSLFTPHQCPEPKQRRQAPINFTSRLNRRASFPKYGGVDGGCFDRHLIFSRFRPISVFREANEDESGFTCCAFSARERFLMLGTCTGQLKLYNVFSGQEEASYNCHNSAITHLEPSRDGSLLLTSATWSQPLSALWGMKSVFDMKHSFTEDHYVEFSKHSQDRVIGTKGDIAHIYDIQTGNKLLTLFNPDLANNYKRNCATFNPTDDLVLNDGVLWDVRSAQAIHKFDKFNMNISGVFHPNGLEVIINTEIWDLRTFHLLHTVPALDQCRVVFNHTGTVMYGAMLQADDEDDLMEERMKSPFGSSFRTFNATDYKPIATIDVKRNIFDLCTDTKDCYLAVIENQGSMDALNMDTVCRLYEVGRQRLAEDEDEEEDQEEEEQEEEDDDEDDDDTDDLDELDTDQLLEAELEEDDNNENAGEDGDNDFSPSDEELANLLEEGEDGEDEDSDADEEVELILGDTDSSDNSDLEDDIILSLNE
WDR5: WD repeat-containing protein 5 (WDR5, Homo sapiens, UniProt P61964)
target | setting | SYPRO Orange fluorescence [a.u.]
DCAF1 | 52.61 °C | 17500
DCAF1 | 41.4 °C | 12000
DCAF1 | 82.01 °C | 43100
WDR5 | 65.61 °C | 14100
WDR5 | 53.81 °C | 16700
DCAF1 | 60.61 °C | 43600
WDR5 | 57.21 °C | 16500
DCAF1 | 93.01 °C | 31600

Repeated from above (block 4):
target | setting | SYPRO Orange fluorescence [a.u.]
DCAF1 | 82.01 °C | 43100
WDR5 | 65.61 °C | 14100
WDR5 | 53.81 °C | 16700
DCAF1 | 60.61 °C | 43600
WDR5 | 57.21 °C | 16500
DCAF1 | 93.01 °C | 31600
